Assay results pooled from the literature.
Parts stem from different laboratories: compare values within a part only.
UniProt P62344, sequence (whole entry, looked up): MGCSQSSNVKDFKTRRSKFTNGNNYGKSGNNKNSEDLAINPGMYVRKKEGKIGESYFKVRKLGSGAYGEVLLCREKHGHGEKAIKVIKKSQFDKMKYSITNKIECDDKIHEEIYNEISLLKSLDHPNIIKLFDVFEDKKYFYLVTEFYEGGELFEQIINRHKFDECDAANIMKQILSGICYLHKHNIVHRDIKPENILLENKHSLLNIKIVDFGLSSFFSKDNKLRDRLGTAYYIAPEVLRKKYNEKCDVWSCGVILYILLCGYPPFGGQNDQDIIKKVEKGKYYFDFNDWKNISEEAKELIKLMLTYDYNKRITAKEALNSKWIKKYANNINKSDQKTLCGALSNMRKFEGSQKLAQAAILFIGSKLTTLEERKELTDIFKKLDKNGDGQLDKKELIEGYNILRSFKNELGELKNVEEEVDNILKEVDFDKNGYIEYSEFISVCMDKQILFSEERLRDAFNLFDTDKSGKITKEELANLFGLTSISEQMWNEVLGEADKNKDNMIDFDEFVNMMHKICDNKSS
UniProt P61075, sequence (whole entry, looked up): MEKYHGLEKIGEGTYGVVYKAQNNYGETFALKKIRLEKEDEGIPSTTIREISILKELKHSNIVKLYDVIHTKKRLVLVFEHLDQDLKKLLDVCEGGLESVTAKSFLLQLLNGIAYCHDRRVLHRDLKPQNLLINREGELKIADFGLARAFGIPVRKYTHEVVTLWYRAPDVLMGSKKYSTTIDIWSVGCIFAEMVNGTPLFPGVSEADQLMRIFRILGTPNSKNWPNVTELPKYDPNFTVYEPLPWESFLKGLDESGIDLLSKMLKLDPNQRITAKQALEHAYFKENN
UniProt P9WI81, sequence (whole entry, looked up): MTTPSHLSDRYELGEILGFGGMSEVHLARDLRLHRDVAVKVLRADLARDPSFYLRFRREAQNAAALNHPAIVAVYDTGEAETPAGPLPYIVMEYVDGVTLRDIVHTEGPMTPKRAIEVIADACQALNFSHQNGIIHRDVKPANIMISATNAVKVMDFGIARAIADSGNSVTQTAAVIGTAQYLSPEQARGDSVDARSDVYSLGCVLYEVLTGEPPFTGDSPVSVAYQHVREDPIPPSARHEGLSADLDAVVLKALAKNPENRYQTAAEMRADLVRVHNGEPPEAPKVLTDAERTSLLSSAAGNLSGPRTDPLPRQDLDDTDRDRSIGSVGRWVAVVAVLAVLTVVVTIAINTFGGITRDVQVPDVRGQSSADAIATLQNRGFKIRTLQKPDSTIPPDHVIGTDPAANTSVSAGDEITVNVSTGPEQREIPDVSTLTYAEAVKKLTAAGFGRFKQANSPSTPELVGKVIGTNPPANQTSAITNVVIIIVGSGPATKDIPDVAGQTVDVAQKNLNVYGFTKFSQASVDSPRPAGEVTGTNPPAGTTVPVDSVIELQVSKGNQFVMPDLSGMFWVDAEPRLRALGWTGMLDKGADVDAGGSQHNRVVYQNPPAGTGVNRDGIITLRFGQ

Block 1 — cell line: Huh-7; concentration: 10 µM; time: 24 h
SMILES | viability [%]
c1ccc2nc(N3CCNCC3)ccc2c1 | 93.3
CC(C)[N+](C)(CCC(C(N)=O)(c1ccccc1)c1ccccc1)C(C)C | 102
N[C@@H](Cc1ccc(N(CCCl)CCCl)cc1)C(=O)O | 61.8
O=C(O)CCCc1ccc(N(CCCl)CCCl)cc1 | 61.6

Block 2 — cell line: A-375; concentration: 100 µM; time: 18 h
Compound | viability [%]
C[C@]12CCC(=O)C(O)=C1CC[C@@H]1[C@@H]2CC[C@]2(C)C(=O)CC[C@@H]12 | 80.7
C[C@]12CCC(=O)C=C1CC[C@@H]1[C@@H]2C(=O)C[C@]2(C)C(=O)CC[C@@H]12 | 118
Cl[C@H]1[C@H](Cl)[C@@H](Cl)[C@@H](Cl)[C@H](Cl)[C@H]1Cl | 9.84
COC(=O)Nc1nc2ccccc2[nH]1 | 85.5

Block 3 — read-out: enzyme activity; action: inhibitor; method: radiometric; concentration: 0.5 µM
Target: Serine/threonine-protein kinase 33 (STK33, Homo sapiens, UniProt Q9BYT3)
UniProt Q9BYT3, sequence (whole entry, looked up): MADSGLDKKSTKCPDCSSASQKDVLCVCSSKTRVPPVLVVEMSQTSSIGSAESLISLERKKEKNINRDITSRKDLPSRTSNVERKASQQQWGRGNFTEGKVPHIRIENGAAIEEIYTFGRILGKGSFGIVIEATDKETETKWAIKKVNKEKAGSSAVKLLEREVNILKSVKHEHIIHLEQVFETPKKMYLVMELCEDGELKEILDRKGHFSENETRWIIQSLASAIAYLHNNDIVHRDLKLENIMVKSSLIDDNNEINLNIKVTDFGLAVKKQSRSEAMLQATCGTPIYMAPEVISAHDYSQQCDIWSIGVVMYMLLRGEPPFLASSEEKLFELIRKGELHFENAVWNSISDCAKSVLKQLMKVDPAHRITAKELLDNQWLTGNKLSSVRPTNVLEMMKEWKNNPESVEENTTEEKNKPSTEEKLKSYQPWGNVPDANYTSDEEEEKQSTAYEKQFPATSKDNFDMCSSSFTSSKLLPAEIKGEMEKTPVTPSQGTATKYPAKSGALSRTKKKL
Structure (SMILES) | remaining activity [%]
CN(C)C[C@H]1CCn2c(c(C3=C(c4cn(C)c5ccccc45)C(=O)NC3=O)c3ccccc32)C1 | 94.8
CN[C@@H]1C[C@H]2O[C@@](C)([C@@H]1OC)n1c3ccccc3c3c4c(c5c6ccccc6n2c5c31)C(=O)NC4 | 10.7
O=C(NC(NC(=S)Nc1ccc(F)c([N+](=O)[O-])c1)C(Cl)(Cl)Cl)C(c1ccccc1)c1ccccc1 (stereo not drawn) | 99.6
CCN(CC)CCNC(=O)c1c(C)[nH]c(/C=C2\C(=O)Nc3ccc(Cl)cc32)c1C | 20.6
CN([C@@H](Cc1ccc(OS(=O)(=O)c2cccc3cnccc23)cc1)C(=O)N1CCN(c2ccccc2)CC1)S(=O)(=O)c1cccc2cnccc12 | 97.3
CCN(CC)C(=O)c1ccc(Nc2nc(OCC3CCCCC3)c3[nH]cnc3n2)cc1 | 67.2
O=C1Nc2ccc(Cl)cc2C1=Cc1cc(Cl)c(O)c(Cl)c1 | 85.1
O=c1cc(-c2cccc3c2Sc2ccccc2S3)oc(N2CCOCC2)c1 | 93.3
Nc1cccc(-c2cc3c(Oc4cccc(O)c4)ncnc3[nH]2)c1 | 80.3
O=c1[nH]c2ccccc2n1C1CCN(Cc2ccc(-c3[nH]c4cc5ncnc5cc4nc3-c3ccccc3)cc2)CC1 | 89.6
N#C/C(=C\c1ccc(O)c(O)c1)C(=O)NCc1ccccc1 | 94.9
O=C1C(Cl)=C(N2C(=O)CCC2=O)C(=O)c2ccccc21 | 91.5
COc1cc2ncnc(Nc3ccc(O)c(Br)c3)c2cc1OC | 80.7
CCOc1nc(NC(=O)Cc2cc(OC)ccc2OC)cc(N)c1C#N | 97.7
Cc1cn(-c2cc(NC(=O)c3ccc(C)c(Nc4nccc(-c5cccnc5)n4)c3)cc(C(F)(F)F)c2)cn1 | 87.1

Block 4 — read-out: enzyme activity; action: inhibitor; concentration: 77 µM
Target: DNA polymerase theta, ATPase domain (POLQ, Homo sapiens, UniProt O75417)
UniProt O75417, sequence (whole entry, unmodified, looked up): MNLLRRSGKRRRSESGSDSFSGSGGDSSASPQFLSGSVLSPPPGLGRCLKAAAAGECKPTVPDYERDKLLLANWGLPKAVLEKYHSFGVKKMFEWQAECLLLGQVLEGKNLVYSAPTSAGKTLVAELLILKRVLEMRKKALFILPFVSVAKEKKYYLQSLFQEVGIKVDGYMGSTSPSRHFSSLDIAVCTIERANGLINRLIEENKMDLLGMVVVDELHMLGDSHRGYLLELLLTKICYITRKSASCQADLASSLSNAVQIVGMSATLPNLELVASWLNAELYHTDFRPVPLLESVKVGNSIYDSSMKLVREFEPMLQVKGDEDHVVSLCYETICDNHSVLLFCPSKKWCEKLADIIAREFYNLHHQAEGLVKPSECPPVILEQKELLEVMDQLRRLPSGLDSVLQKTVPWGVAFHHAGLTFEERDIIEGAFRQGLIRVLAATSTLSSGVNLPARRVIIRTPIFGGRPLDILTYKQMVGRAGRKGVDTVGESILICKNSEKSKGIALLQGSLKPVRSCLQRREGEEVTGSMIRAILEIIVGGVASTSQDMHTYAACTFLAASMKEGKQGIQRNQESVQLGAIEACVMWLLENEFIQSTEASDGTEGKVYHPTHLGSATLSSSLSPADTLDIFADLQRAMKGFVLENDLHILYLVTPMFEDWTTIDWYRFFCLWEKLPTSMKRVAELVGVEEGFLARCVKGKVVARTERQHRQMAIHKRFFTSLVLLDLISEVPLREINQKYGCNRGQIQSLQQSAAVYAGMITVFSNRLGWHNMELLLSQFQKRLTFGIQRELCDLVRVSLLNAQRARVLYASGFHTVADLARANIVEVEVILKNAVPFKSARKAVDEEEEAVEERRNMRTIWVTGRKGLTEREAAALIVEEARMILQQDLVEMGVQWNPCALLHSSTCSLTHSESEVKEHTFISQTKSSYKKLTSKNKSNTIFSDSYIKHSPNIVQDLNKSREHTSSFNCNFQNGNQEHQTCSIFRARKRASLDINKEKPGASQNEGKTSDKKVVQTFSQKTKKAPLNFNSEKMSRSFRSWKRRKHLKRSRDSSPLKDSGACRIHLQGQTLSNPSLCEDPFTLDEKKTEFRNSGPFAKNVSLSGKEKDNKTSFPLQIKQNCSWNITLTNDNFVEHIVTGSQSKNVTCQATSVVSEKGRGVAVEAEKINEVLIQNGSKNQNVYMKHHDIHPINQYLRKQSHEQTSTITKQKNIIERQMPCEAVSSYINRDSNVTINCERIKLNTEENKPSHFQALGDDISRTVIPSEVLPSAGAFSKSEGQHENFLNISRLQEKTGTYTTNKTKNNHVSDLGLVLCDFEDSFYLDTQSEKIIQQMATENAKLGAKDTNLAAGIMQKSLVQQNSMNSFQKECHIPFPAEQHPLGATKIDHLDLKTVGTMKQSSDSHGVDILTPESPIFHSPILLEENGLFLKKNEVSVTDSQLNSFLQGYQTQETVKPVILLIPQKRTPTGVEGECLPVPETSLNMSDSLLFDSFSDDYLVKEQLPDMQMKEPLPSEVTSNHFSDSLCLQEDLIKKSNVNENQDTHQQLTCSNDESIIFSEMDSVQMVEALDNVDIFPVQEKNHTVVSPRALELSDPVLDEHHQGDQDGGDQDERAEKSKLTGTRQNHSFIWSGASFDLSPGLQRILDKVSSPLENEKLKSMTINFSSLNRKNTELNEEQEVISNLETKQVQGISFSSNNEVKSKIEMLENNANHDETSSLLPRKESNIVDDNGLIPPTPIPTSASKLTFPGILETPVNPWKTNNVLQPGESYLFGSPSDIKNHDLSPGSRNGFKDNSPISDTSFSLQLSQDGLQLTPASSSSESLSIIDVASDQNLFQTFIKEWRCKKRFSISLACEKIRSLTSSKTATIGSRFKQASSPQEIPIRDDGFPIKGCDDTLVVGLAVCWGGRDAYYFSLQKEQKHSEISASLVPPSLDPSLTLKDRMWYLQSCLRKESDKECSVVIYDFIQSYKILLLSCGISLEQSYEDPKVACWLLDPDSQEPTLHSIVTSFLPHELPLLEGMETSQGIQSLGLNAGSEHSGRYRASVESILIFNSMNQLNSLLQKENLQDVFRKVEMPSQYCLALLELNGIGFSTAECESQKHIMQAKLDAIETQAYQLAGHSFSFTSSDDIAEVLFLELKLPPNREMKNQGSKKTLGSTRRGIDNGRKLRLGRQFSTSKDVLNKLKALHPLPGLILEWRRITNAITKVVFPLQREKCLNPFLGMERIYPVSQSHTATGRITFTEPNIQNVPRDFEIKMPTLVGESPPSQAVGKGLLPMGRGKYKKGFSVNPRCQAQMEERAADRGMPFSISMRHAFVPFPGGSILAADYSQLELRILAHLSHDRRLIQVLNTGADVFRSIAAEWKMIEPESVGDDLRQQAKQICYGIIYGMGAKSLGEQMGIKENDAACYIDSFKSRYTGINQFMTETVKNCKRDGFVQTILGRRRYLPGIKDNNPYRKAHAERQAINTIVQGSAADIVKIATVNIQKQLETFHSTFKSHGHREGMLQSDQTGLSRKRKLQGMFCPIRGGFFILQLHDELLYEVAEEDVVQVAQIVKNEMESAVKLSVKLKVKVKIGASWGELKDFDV
SMILES | remaining activity [%]
O=[N+]([O-])C=Cc1ccc2c(c1)OCO2 | 103
NCCc1c[nH]c2ccccc12 | 86.4
Cc1ncc(CNC(=O)N(CCCl)N=O)c(N)n1 | 107
O=C1CCC[C@@H]2[C@H]3CCCN4CCC[C@@H](CN12)[C@@H]34 | 96.1

Single results of other studies
CAMK2A: Calcium/calmodulin-dependent protein kinase type II subunit alpha (CAMK2A, Homo sapiens, UniProt Q9UQM7)
UniProt Q9UQM7, sequence (whole entry, looked up): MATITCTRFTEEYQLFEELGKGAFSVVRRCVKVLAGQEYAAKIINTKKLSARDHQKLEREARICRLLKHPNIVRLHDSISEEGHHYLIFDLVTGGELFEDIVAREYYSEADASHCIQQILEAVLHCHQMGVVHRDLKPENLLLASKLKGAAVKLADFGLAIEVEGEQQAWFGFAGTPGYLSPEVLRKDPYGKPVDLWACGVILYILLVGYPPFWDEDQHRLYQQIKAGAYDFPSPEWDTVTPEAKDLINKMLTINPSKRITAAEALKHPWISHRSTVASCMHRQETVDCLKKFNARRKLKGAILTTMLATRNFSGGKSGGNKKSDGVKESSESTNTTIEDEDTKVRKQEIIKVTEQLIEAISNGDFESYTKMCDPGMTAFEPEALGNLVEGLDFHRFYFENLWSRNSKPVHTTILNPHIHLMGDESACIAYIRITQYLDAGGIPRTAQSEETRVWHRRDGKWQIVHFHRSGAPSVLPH
Structure (SMILES) | target or system | test | setting | scale | quantity | result
Cc1cc(NC(=O)c2cccc(S(F)(F)(F)(F)F)c2)cc(-n2ccn3nc(-c4cccnc4)cc23)c1 | sample G normal colon organoid | CellTiter-Glo | 1 µM, 4 days | baseline: DMSO | viability | 90.7%
OCC(Cl)(Cl)Cl | CAMK2A | enzyme activity, inhibitor | 10 µM | – | inhibition | -4%
FC(F)(F)c1ccc2c(c1)nc(-c1cccnc1)n2C1CC1 | Calcium-dependent protein kinase 1 (CDPK1, Plasmodium falciparum, UniProt P62344) | cell-free assay, competition with immobilised ligand | 1 µM | – | remaining binding | 100%
NCc1c[nH]c2ccccc12 | CAMK2A | enzyme activity, inhibitor | 10 µM | – | inhibition | 3%
CCOCCn1cc(C(=O)Nc2ccc(-n3nc(-c4cccnc4)cc3C(F)(F)F)cn2)ccc1=O | Serine/threonine-protein kinase PknB (pknB, Mycobacterium tuberculosis, UniProt P9WI81) | cell-free assay, competition with immobilised ligand | 1 µM | – | remaining binding | 95%
COc1cc(-c2cn(C3CCc4c(F)cccc4N(CC(F)(F)F)C3=O)nn2)ccc1-n1cnc(C)c1 (stereo not drawn) | Cyclin-dependent kinase 2 homolog (CRK2, Plasmodium falciparum, UniProt P61075) | cell-free assay, competition with immobilised ligand | 1 µM | – | remaining binding | 100%

For quick reference, copied from above (block 3):
Structure (SMILES) | remaining activity [%]
O=C1Nc2ccc(Cl)cc2C1=Cc1cc(Cl)c(O)c(Cl)c1 | 85.1
O=C(NC(NC(=S)Nc1ccc(F)c([N+](=O)[O-])c1)C(Cl)(Cl)Cl)C(c1ccccc1)c1ccccc1 (stereo not drawn) | 99.6
N#C/C(=C\c1ccc(O)c(O)c1)C(=O)NCc1ccccc1 | 94.9
CN(C)C[C@H]1CCn2c(c(C3=C(c4cn(C)c5ccccc45)C(=O)NC3=O)c3ccccc32)C1 | 94.8
